Experimental data collected from several papers.
Parts stem from different laboratories: compare values within a part only.

Series 1 — method: RNA Bind-n-Seq; form: RNA; sample: in vitro; tested at: 200 nM; setting: whole 134-nt RNA, ends assumed; with: 150 mM LiCl; reference: input library; reading: higher = stronger binding; each molecule: 7-deaza-guanosine replaces G
Target: Ras GTPase-activating protein-binding protein 1, full length (G3BP1, Homo sapiens, UniProt Q13283)
Chain of UniProt Q13283 (whole entry, looked up): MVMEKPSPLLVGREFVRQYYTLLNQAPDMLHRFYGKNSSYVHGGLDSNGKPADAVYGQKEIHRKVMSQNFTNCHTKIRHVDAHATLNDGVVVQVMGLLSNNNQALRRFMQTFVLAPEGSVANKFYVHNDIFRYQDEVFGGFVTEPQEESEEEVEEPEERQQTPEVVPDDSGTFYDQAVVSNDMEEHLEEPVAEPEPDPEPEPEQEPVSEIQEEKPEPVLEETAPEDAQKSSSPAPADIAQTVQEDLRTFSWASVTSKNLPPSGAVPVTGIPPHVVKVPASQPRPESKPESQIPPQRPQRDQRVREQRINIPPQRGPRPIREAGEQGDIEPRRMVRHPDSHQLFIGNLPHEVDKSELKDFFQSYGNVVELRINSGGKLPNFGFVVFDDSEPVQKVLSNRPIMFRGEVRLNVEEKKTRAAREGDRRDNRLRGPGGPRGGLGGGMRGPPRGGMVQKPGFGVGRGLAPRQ
Shared flanks, not repeated: GGGAGUUCUACAGUCCGACGAUC … UGGAAUUCUCGGGUGUCAAGG
Sequence | log2 enrichment
UCCUGUGCUACACAUCGUAUGUACCGAAUCGGGUUUUUUGGGGUUUUUUGGUUUUUUGGAAAGUAUUAUGUUACGCCGUUCGGAUCUGCA | 0.588
AGUCCUGUGCUACACAUCGUAUGUACCGAAUCGGGAAAAAAAGGGUUUUUGGGUGGGAAAGUAUUAUGUUACGCCGUUCGGAUCUGCACU | -1.41
UGGGAGGUGGAUUUUGUUUAUUUUUUUAGCCCAUUUCCAGGGGUGGGAAUUUUUUUUUAAUAUGUGUCAUGAAUAAAGUUGUUUUUGAAA | -0.32
GCAGGAAGUAAAAACAAAUGGAAAUGCUUCGGAUAGUGGCAGGGGUGGGGGAAACUAAGGAAAGGGUGGGAUGGGAGUGGGUAAAGAGUU | 0.0351
AGUCCUGUGCUACACAUCGUAUGUACCGAAUCGGCCCCCGGCCCCCGGCCCCCGGGGAAAGUAUUAUGUUACGCCGUUCGGAUCUGCACU | 0.358
CCUGUGCUACACAUCGUAUGUACCGAAUCGGUUUUUUUGGGUUUUUUUGGGUUUUUUUGGAAAGUAUUAUGUUACGCCGUUCGGAUCUGC | 0.914
GUCCUGUGCUACACAUCGUAUGUACCGAAUCGGGUUUUUGGGGUUUUUGGGUUUUUGGGAAAGUAUUAUGUUACGCCGUUCGGAUCUGCA | -0.379
ACCAUGCAGGUGGGCAUCUUUGGGAAGUGGGGCAAGGGGGGGCUAGGGAGGGGGGUAACACUUUGGGAACAGGUGGUCCCAGGUCGUUUC | -0.0867
UCAAGUCCUGUGCUACACAUCGUAUGUACCGAAUCGGAAAGGAAAGGGAAAGGGAAAGUAUUAUGUUACGCCGUUCGGAUCUGCACUUCC | -0.048
AAGUCCUGUGCUACACAUCGUAUGUACCGAAUCGGGGUUUGGGGUGGGGUUUGGGGAAAGUAUUAUGUUACGCCGUUCGGAUCUGCACUU | -0.157
UCAUGUAUAGACAACGCCAUUAUUGACGAGAUCACUCCCAAGCGGAUUGGAGAUUGUCCCAAUAUUUAGACCUAUAGCAAGGCCUUGGGA | -0.782

Series 2 — method: RNA Bind-n-Seq; form: RNA; sample: in vitro; tested at: not given; setting: RNA with constant flanks, ends assumed; reference: input RNA pool; reading: higher = stronger binding
Target: RING finger protein unkempt homolog, zinc fingers 1-6, GST-SBP tag (UNK, Homo sapiens, UniProt Q9C0B0, residues 30-357)
Shared flanks, not repeated: GGGAGUUCUACAGUCCGACGAUC … CAACAGAGGAUUGAGCAUCA
Construct (chain): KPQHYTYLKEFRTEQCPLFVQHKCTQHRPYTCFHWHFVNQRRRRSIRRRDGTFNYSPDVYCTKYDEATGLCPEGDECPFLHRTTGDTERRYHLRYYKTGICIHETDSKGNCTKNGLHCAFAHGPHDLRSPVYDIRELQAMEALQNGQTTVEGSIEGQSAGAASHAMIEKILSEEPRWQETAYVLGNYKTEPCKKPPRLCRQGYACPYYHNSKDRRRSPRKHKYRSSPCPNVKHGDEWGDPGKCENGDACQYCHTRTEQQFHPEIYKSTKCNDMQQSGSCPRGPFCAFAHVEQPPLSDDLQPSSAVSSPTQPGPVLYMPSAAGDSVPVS
Sequence | bound/input enrichment
CCACAUUAGCACCCUGCCAGCCUACCAGCCUCUCUGUGCACAGCUUCUAAUGUUAUGAUCCCGCCCGAUUUUUAUUUAAAAUAUGAAAAACUGCUUUUCCCAAGACGUUUUUUAAAAGGA | 1.18 ratio
GGAAUAUUCAUUGUGCUGAAUAUUACCCUUGUGUUUGCAGCUGUAUUUAAACUUGAAACAGACCGAACUGUAUGGCCCUUGAUAAGAAUCUAUCGGGGUGGCUUUCUUCUGAUUGAAUUC | 0.124 ratio
GACACUCUCAUCAAGACAUUUGUGCGCUCACAGACUGCCCAGGUACAUGAUGGGAAAGGUAUCCGGUUUACUGCUAACGAGGACAUUCGGCCAGAAAAGGGGGCUGGUGUGGAUGACCCC | 0.219 ratio
UCUUUCCAGUAGUAGCCAGGAAAGGUUAUCUGGGUUAGGGUUUUUGUUGUUUGUAUUCCGCCGGUUUUUGUUUUGUUUUGUUUUGUUUAACCUCUGUGCUGUUUACAUAAACAAAUUGCU | 1.32 ratio
GAAGAAGCAUGCUUCACUCUCCAGUACUUAAACAAACUGUCCAUGAAACCAGAGCCUCUAUUCCGAAGUGUAGGCAAUACCAUUGAGCCUGUCAUCCUGUUCCAGAAGAUGGGAGUGGGC | 0.0946 ratio
GUUGUCAGUGUGGACAAAGGAAGCAGAGCUGUGCUGUGGGCACAGCCUUGAUGCUGCACCCUCCGGAGCACCGUGGGACCCCACGGCCCAUCUUGGAGAAUGAUGUGUCCUCCCAGAAAA | 0.11 ratio
UACUUAAAUGAAAUAAAACCUCCCAUCAUACACUAUGACCUCAAACCAGGUAAUAUUCUUUCCGUAAAUGGUACAGCGUGUGGAGAGAUAAAAAUUACAGAUUUUGGUCUUUCGAAGAUC | 0.242 ratio
GCAGAUGAAGUAGAGUUUACUGUGGUUCCUGAUAUGCUCUCUGCCCAAAGAAAUCAUGCUAUCCGGAUUAAAAAACUUCCCAAGGGCACGGUUUCAUUCCAUUCCCAUUCAGAUCAUCGU | 0.307 ratio

Series 3 — method: protein binding microarray; form: double-stranded DNA, one strand shown; sample: in vitro; tested at: not given; reference: not given; reading: higher = stronger binding
Target: Histone acetyltransferase KAT6A, winged helix 2, GST fusion (KAT6A, Homo sapiens, UniProt Q92794, residues 85-181)
Setting: 8-mer, flanks averaged, mean of 2 arrays, mostly near background
Residues (chain): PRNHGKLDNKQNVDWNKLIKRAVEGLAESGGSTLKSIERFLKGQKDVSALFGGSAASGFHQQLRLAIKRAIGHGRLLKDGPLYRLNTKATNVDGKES
Sequence | E-score
ATAGATAC | -0.149
CGATAGAA | -0.161
AGGACGTA | -0.107
CCTTTTCG | 0.108
GGATATAC | 0.00102
CCTGACAG | -0.0388
AACCACCC | -0.062
CATAGATA | -0.204
CCCACCGC | 0.163
CTGCTCTA | 0.108
GTCATGCA | -0.0197
CCCCTATA | -0.223
ATTTTAAC | -0.154
CTGTGGGA | -0.0697
ACACGCAA | 0.0147
AACCGAGG | -0.0176
AAGGGATG | -0.0999
ATGTCTTA | -0.177

Series 4 — method: RNA Bind-n-Seq; form: RNA; sample: in vitro; tested at: 365 nM; reference: no-protein control; reading: higher = stronger binding
Target: RNA binding protein fox-1 homolog 2, RRM domain, GST-SBP tag (RBFOX2, Homo sapiens, UniProt O43251-10, residues 100-194)
Setting: natural RNA segment, single round, ends assumed
Shared flanks, not repeated: GGGAGUUCUACAGUCCGACGAUC … UGGAAUUCUCGGGUGCCAA
Target sequence (chain): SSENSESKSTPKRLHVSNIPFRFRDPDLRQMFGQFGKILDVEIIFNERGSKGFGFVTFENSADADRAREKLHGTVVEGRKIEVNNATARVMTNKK
Sequence | RBNS enrichment (R)
UCCUUCCAGAGCUGUGGAAGAGAUGUUUGUGACCCCUCCCUUGGACUCUUGGGGGCCAAUCCCACUCUUGAGUGCAAUGGUUGCAUUUAGAAUCAGCUAGCUAGCCAGGG | 0.486
GGACUCAGCAGGCUGGAGCUUGGGGCCUGGUGGACCAUCACCUGGUGUCUGUAGGUGGACCCGGUCUCCCACAGGUGACAUCAACCUGAGGGUGGCGUCUUUAGAGACAG | 0.579
UAUAUUAUAUAUAUAUAUUUUUAAGGUGAAAUACUAAACACUACUUCCUGUCUAUUGAUCUGUAAAAUUAUCAUGUAAAUGUUCUACCAAUUGGCUGUAUAUUUUUGUUG | 0.627
AUGGGCAUGGCAUGUGAAGCAAUGUCCUGCAGAUGGAUUACCACCUUUUAUUUCUGCCAGCUAACAUCCUCCCAGCCUCCUGCCUACUACUGUAGACUCCGGUGUGACCC | 0.573
AAGCUUAAAUUUUAUAUUAUUUUAAAAUGUCUUGGUCUUCUACUGCCUUGAAAAAUGACAAUUGUGAACACGAUAGUUAACUGUACUACUUUUUAAGCUGUUGUUAUGCA | 1.6
UGACCAAAAACAGUGCCAGUUAAAAACCACCGGGGAAACGUUUGCAGAUACGCUAGGUCUGCAGUUUGAUAUUUUGUAAAAUCCUCAAAAGCAAGGGAAGUGGCUACUUU | 1.54
CUACUAUAACAUAGGCAUAAAUAUUUUCGUGUUUAUAUGCAUAUACAAGUUAAAAUAAUUAGAAACUAUGACUGCGCCUAGUAAAGUCAUCUAGGUUUAUAGUUCAGUAG | 0.515
UUGACGUCACACCCACAGGUGAAACAGCCCGAAGUCAAGGCCUUGCUAGUAAAUGGAGCUUUGUACAUAGUCAUUGUGAUGUCUUGGCUGCCCGGACACCACGUAAACAU | 2.17
CUAGCCAGAGACCUAUGCAUCCCGAAUGGCCACUAAGGCAGUCCUGAAGGGCCCUCCAGGGUGAUGACUCCAGUGUGUCAGCCCCACUGAGCAGCUAUGCAGGUUGACUG | 0.383
AGCUAGACAAAAGAUCUGUGCCCUGUGUUUCAUCCCAGAGCUUGUUGCCAGAUCACAUGGCUGGAUGUGAUGUGGGGUGGGGGUGGGGUCAUAUCUGAGACAGCCCUCAG | 4.25
CGGCCCCUUCUUUUGUCUUCCUGGCAGGAAAGCAAGACAGUGAGCCAUGCCCUAAAACACUCACACCUGUAAACCCAGUCCUUAGGAGACUGAGGCAGGAGGAUCCCUGU | 0.259
UGUUGGUUUAUAAUAGACAAGUUUUAUGGUCAUAUGCAAUUAUUCCAUUAUCUUUUUGGACACAGUGAAUAUGUUUUUUAGCUAAAAAUGUCCUUGGAAACAUAAAUGCC | 0.519

Excerpt of the above (series 4):
Sequence | RBNS enrichment (R)
CGGCCCCUUCUUUUGUCUUCCUGGCAGGAAAGCAAGACAGUGAGCCAUGCCCUAAAACACUCACACCUGUAAACCCAGUCCUUAGGAGACUGAGGCAGGAGGAUCCCUGU | 0.259
UGUUGGUUUAUAAUAGACAAGUUUUAUGGUCAUAUGCAAUUAUUCCAUUAUCUUUUUGGACACAGUGAAUAUGUUUUUUAGCUAAAAAUGUCCUUGGAAACAUAAAUGCC | 0.519
CUACUAUAACAUAGGCAUAAAUAUUUUCGUGUUUAUAUGCAUAUACAAGUUAAAAUAAUUAGAAACUAUGACUGCGCCUAGUAAAGUCAUCUAGGUUUAUAGUUCAGUAG | 0.515
CUAGCCAGAGACCUAUGCAUCCCGAAUGGCCACUAAGGCAGUCCUGAAGGGCCCUCCAGGGUGAUGACUCCAGUGUGUCAGCCCCACUGAGCAGCUAUGCAGGUUGACUG | 0.383
